Measured values gathered from unrelated publications.
Protocols differ between the studies behind these lines. ± marks the error that the study gave.

Structure (SMILES) | assay | system | setting | scale | measurement | result
COC(=O)C(c1ccccc1Cl)N1CCC(SCC(=O)c2cccc(OC)c2)C(=CC(=O)O)C1 (mixture of isomers) | HPLC-MS/MS | feline EDTA plasma | 100 ng/mL, 72 h, 4 °C, storage stability |  | deviation from nominal | 2%
FC(F)(F)c1ccnc(-c2cc(C(F)(F)F)ccn2)c1.FC(F)(F)c1ccnc(-c2cc(C(F)(F)F)ccn2)c1.[Cl-].[Cl-].[Ru+2].c1csc(-c2ccc(-c3ccc(-c4nc5c6cccnc6c6ncccc6c5[nH]4)s3)s2)c1 | shake-flask | 10 mM phosphate buffer | pH 7.4, chloride salt |  | logD (octanol/water) | positive
Cc1[nH]c(/C=C2\C(=O)Nc3ccc(F)cc32)c(C)c1NC(=O)CCN1CCN(C)CC1 |  | dog plasma | 80 ng/mL, 30 d frozen, -80 °C |  | accuracy deviation | -10.9%
O=C(O)/C=C/c1ccc(NC(=O)C2(NC(=O)c3ccc4c(C5CCCCC5)c5n(c4c3)CCOc3ccccc3-5)CCCC2)cc1 |  | rat | intravenous, 2 mg/kg |  | clearance | 17 mL/min/kg
CCNC(=O)[C@@]1(c2ccccc2)C[C@H]1CN |  | healthy men | oral, 60 mg, 0-120 h | baseline: dose | urinary excretion | 18.2%
[11CH3]c1ccc2nc(C3CCC3)n(-c3ccc4[nH]ncc4c3)c2n1 |  | human male, thymus |  |  | absorbed radiation dose | 2.3 µSv/MBq
Cn1c(=O)oc2ccc(-c3ccc(CC(C#N)NC(=O)C4CNCCCO4)c(F)c3)cc21 (centres unmarked) | item: skin exfoliation | human | 60 mg, treatment-related, single dose, fasted |  | subjects with adverse event | 16.7%
N#Cc1cnc2cc(OCC3CCNCC3)c(F)cc2c1Nc1cc(F)c(OCc2cccc(Cl)n2)cc1Cl |  | male beagle dog, plasma | oral, 5 mg/kg |  | half-life | 6.7 h
CNC(CC(C)C)C(=O)NC1C(=O)NC(CC(N)=O)C(=O)NC2C(=O)NC3C(=O)NC(C(=O)NC(C(=O)NCCCNC(=N)N)c4cc(O)cc(O)c4-c4cc3ccc4O)C(O)c3ccc(c(Cl)c3)Oc3cc2cc(c3OC2OC(CO)C(O)C(O)C2OC2CC(C)(NCc3ccc(-c4ccc(Cl)cc4)cc3)C(O)C(C)O2)Oc2ccc(cc2Cl)C1O (centres unmarked) |  | mice | intravenous, 50 mg/kg |  | clearance | 1.5 mL/min/kg
CC(C)c1cnc(-c2cc(Cl)ccc2F)cc1Nc1ccncc1C(=O)NC(CO)CO |  | patients, phase I monotherapy | oral, dose not given, grade 3 |  | patients with AST increase | 0%
CC(F)C(=O)NC[C@@H]1O[C@H](C(=O)N[C@@H](CCC(=O)NCCCC[C@@H]2NC(=O)[C@@H](Cc3ccc(O)cc3)NC(=O)[C@H](CC(=O)O)NC(=O)CNC(=O)[C@H](CCCNC(=N)N)NC2=O)C(=O)NCCCC[C@@H]2NC(=O)[C@@H](Cc3ccc(O)cc3)NC(=O)[C@H](CC(=O)O)NC(=O)CNC(=O)[C@H](CCCNC(=N)N)NC2=O)[C@H](O)[C@H](O)[C@H]1O (some centres unmarked) [fluorine-18 labelled] |  | female athymic nude mouse, U-87 MG xenograft, kidney | dose not given, 1 h |  | kidney uptake | 2.7 ± 0.4 %ID/g
N=C(N)NCCC[C@@H]1NC(=O)[C@H](Cc2c[nH]c3ccccc23)NC(=O)[C@@H](CC2CCCCC2)NC(=O)[C@@H]2CCCN2C(=O)[C@@H](NC(=O)CCc2ccccc2)CCCNC1=O |  | C57BL/6J mouse, spinal cord | subcutaneous, 1 mg/kg, single dose, two-compartment model |  | redistribution rate constant (K21) | 0.32 h⁻¹
CCCC(CCC)NC(=O)c1ccc(O)c(O)c1 |  | male Sprague-Dawley rats, plasma | oral, 200 mg/kg of parent drug | baseline: 200 over 20 mg/kg dose | Cmax ratio | 14.3
OC1(C(F)(F)F)CCN(c2nc(Nc3ccnc(C(F)(F)F)c3)nc(-c3cccc(C(F)(F)F)n3)n2)C1 (centres unmarked) |  | Sprague-Dawley rat, both sexes, plasma | oral, 5 mg/kg daily for 14 days | baseline: day 14 over day 1 | Cmax accumulation ratio | 2.4
CC(C)(O)c1ncc([S@](N)(=O)=NC(=O)Nc2c3c(cc4c2CCC4)CCC3)s1 |  | healthy human | oral, 30 mg once daily, day 1, capsule formulation, median |  | Tmax | 1.27 h
COc1cc(C)c(Cc2ccc(O)cc2)cc1[C@@H]1S[C@H](CO)[C@@H](O)[C@H](O)[C@H]1O |  | Japanese T2DM patients, urine | 5 mg luseogliflozin, day 7, once daily | baseline: dose | urinary excretion 0-24 h | 11.6 ± 2.49%

Structure (SMILES) | assay | system | setting | scale | measurement | result
CC[C@H](C)[C@H](NC(=O)[C@H](CC(C)C)NC(=O)[C@H](Cc1c[nH]c2ccccc12)NC(=O)[C@H](C)NC(=O)[C@@H](NC(=O)[C@H](Cc1ccccc1)NC(=O)[C@H](CC(=O)O)NC(=O)[C@H](CCCNC(=N)N)NC(=O)[C@H](C)NC(=O)[C@H](C)NC(=O)[C@H](CC(C)C)NC(=O)[C@H](C)NC(=O)[C@H](CC(=O)O)NC(=O)[C@H](CC(C)C)NC(=O)[C@@H](NC(=O)[C@@H](NC(=O)[C@H](C)NC(=O)[C@H](CC(C)C)NC(=O)[C@H](CCC(=O)O)NC(=O)[C@H](CO)NC(=O)[C@H](CO)NC(=O)[C@H](Cc1ccccc1)NC(=O)[C@@H](NC(=O)CNC(=O)[C@H](CCC(=O)O)NC(=O)CNC(=O)[C@@H](N)Cc1cnc[nH]1)[C@@H](C)O)[C@@H](C)O)[C@@H](C)CC)[C@@H](C)CC)C(=O)N[C@@H](C)C(=O)N[C@H](C(=O)N[C@@H](CCCCN)C(=O)N[C@H](C(=O)N[C@H](C(=O)N[C@@H](CC(=O)O)C(=O)N[C@@H](CCCCN)C(=O)N[C@@H](CCCCN)C(=O)N[C@@H](CCCCN)C(=O)N[C@@H](CCCCN)C(=O)N[C@@H](CCCCN)C(=O)N[C@@H](CCCCN)C(N)=O)[C@@H](C)O)[C@@H](C)CC)[C@@H](C)O |  | healthy humans, plasma | subcutaneous, 5 mg once weekly |  | effective half-life | 124 h
NCCCC(=O)OCC(=O)c1ccc(O)c(F)c1F.O=C(O)C(F)(F)F | photolysis at 300 nm | ammonium acetate buffered acetonitrile-water | pH 5.0, 0.01 mol/L buffer |  | quantum yield of GABA release | 0.16
N[C@@H](COc1ccccc1C(F)(F)F)c1ccccc1 |  | male Sprague-Dawley rat | oral, 25 mg/kg |  | clearance | 258 ± 3.33 mL/min/kg
Brc1ccc(Nc2nc(NN=Cc3c[nH]c4ccccc34)nc(N3CCOCC3)n2)cc1 |  | rat liver microsomes | 0.1 µM, pH 7.4 |  | metabolic bioavailability | 57.2%
NC[C@@H](C(=O)Nc1ccc(-c2cn[nH]c2)cc1)c1ccccc1 | OECD 405 eye irritation | New Zealand White rabbit, eye | topical, 0.1%, 72 h (day 4), scale 0 to 3 | direction not given | conjunctival redness score | 0
O=C([O-])CN1CCN(CC(=O)[O-])CCN(CC(=O)NCC2CCC(C(=O)NC(Cc3ccc4ccccc4c3)C(=O)NCCCCC(NC(=O)NC(CCC(=O)O)C(=O)O)C(=O)O)CC2)CCN(CC(=O)[O-])CC1.[44Sc+3] (centres unmarked) | transchelation stability |  | 24 h, 37 °C, added: DTPA 10 mM |  | intact complex | 95.1 ± 0.8%
O=c1nc(NO)ccn1[C@@H]1O[C@H](CO)[C@@H](O)[C@H]1O | RT-PCR, item: CYP1A2 | normal rats, liver | oral, 80 mg/kg twice daily, 5 days | baseline: untreated normal rats | mRNA level | < 0.1 fold
CC[C@H](C)[C@H](NC(=O)[C@H](Cc1ccc(O)cc1)NC(=O)[C@H](CCCNC(=N)N)NC(=O)[C@H](CCCNC(=N)N)NC(=O)[C@H](CC(C)C)NC(=O)[C@H](CC(=O)O)NC(=O)[C@H](C)NC(=O)[C@H](C)NC(=O)[C@H](Cc1ccc(O)cc1)NC(=O)[C@H](CCC(N)=O)NC(=O)[C@H](C)NC(=O)[C@H](CCSC)NC(=O)[C@H](CCC(N)=O)NC(=O)[C@H](CCC(=O)O)NC(=O)[C@@H]1CCCN1C(=O)[C@@H](NC(=O)[C@H](C)NC(=O)[C@H](CC(N)=O)NC(=O)[C@H](CC(=O)O)NC(=O)CNC(=O)[C@@H]1CCCN1C(=O)[C@H](Cc1ccc(O)cc1)NC(=O)[C@@H](NC(=O)[C@@H]1CCCN1C(=O)[C@H](CCC(=O)O)NC(=O)[C@H](CC(C)C)NC(=O)[C@@H]1CCCN1C(=O)[C@H](C)N)C(C)C)[C@@H](C)O)C(=O)N[C@@H](CC(N)=O)C(=O)N[C@@H](CCSC)C(=O)N[C@@H](CC(C)C)C(=O)N[C@H](C(=O)N[C@@H](CCCNC(=N)N)C(=O)N1CCC[C@H]1C(=O)N[C@@H](CCCNC(=N)N)C(=O)N[C@@H](Cc1ccc(O)cc1)C(N)=O)[C@@H](C)O | dynamic light scattering | PBS | 4 µM, pH 7.4, smaller population, no SSM |  | hydrodynamic diameter | 98.3 ± 17.9 nm
[2H]C([2H])([2H])NC(=O)c1ccc(N2C(=S)N(c3ccc(C#N)c(C(F)(F)F)c3)C(=O)C2(C)C)cc1F |  | male human, plasma | oral, 160 mg, single dose, fasted |  | MRT | 222 h
CC/C=C\C/C=C\C/C=C\C/C=C\C/C=C\CCCCOC(CC)C(=O)O (centres unmarked) | radioactivity, 14C-labelled | Wistar rat, male, whole blood | oral, 100 mg/kg, 1 day |  | tissue concentration | 2.6 µg equivalents/g tissue
CCNC(=O)OCc1c(COC(=O)NCC)c(-c2ccc(OC)cc2)n2c1Cc1ccccc1-2 |  | BALB/c nude mice, blood | dose not given, day 10 |  | mean corpuscular haemoglobin concentration | 29.3 ± 0.4 g/dL
CC(C)C[C@@H](NC(=O)[C@H](NC(=O)[C@H]1CCCN1)[C@H](C)O)C(=O)N[C@H](Cc1c[nH]cn1)C(=O)N[C@@H](C(=O)N[C@H](Cc1c[nH]cn1)C(=O)N[C@H](CC(N)=O)C(=O)N[C@H](CCCNC(=N)N)C(=O)N[C@H](CCCNC(=N)N)C(=O)N[C@H](CCCNC(=N)N)C(=O)N[C@H](CCCNC(=N)N)C(=O)N[C@H](CCCNC(=N)N)C(N)=O)[C@H](C)O |  | Beagle dog, CSF | oral, 20 mg/kg |  | AUC(0-tlast) | 180 ± 77 ng·h/mL
CCC1CNC(CC)CN(C(C(=O)[O-])c2ccc(C(=O)[O-])cc2)C(CC)CN(CC(=O)[O-])C(CC)CN1.[Mn+2] (centres unmarked) | ICP-MS | BALB/c mice, intestine | intravenous, 0.05 mmol/kg, 5 min |  | Mn content | 19.7 µg/g
N#CC1(c2ccc3c(N)ncnn23)OC(COP(=O)(O)O)C(O)C1O (centres unmarked) | LC-MS/MS | male CD-1 mice, liver, kidney and lung | oral, 100 mg/kg of remdesivir |  | last detectable time | ≤ 16 h
NCCCC(=O)OCC(=O)c1cc(F)c(O)c(F)c1F.O=C(O)C(F)(F)F | photolysis, item: disappearance of compound | aqueous HEPES buffer with LiClO4 | pH 8.2 |  | quantum yield | 0.02
COc1ccc(/C=C/c2ccc(-c3ccc(C)cn3)nc2)cc1 | TCSPC | hexanes |  |  | fluorescence lifetime | 0.91 ns

For quick reference, copied from above:
Structure (SMILES) | assay | system | setting | scale | measurement | result
COC(=O)C(c1ccccc1Cl)N1CCC(SCC(=O)c2cccc(OC)c2)C(=CC(=O)O)C1 (mixture of isomers) | HPLC-MS/MS | feline EDTA plasma | 100 ng/mL, 72 h, 4 °C, storage stability |  | deviation from nominal | 2%
N[C@@H](COc1ccccc1C(F)(F)F)c1ccccc1 |  | male Sprague-Dawley rat | oral, 25 mg/kg |  | clearance | 258 ± 3.33 mL/min/kg
CNC(CC(C)C)C(=O)NC1C(=O)NC(CC(N)=O)C(=O)NC2C(=O)NC3C(=O)NC(C(=O)NC(C(=O)NCCCNC(=N)N)c4cc(O)cc(O)c4-c4cc3ccc4O)C(O)c3ccc(c(Cl)c3)Oc3cc2cc(c3OC2OC(CO)C(O)C(O)C2OC2CC(C)(NCc3ccc(-c4ccc(Cl)cc4)cc3)C(O)C(C)O2)Oc2ccc(cc2Cl)C1O (centres unmarked) |  | mice | intravenous, 50 mg/kg |  | clearance | 1.5 mL/min/kg
COc1cc(C)c(Cc2ccc(O)cc2)cc1[C@@H]1S[C@H](CO)[C@@H](O)[C@H](O)[C@H]1O |  | Japanese T2DM patients, urine | 5 mg luseogliflozin, day 7, once daily | baseline: dose | urinary excretion 0-24 h | 11.6 ± 2.49%
